Results gathered from unrelated publications.
Numbered parts are unrelated; each lists some results of a single study.

Study 1 — technique: RNA Bind-n-Seq; form: RNA; matrix: in vitro; concentration: 200 nM; setting: whole 134-nt RNA, ends assumed; together with: 150 mM KCl; relative to: input library; direction: higher = stronger binding; endpoint: log2 enrichment
Target: Ras GTPase-activating protein-binding protein 1, full length (G3BP1, Homo sapiens, UniProt Q13283)
Chain of UniProt Q13283 (whole entry, looked up): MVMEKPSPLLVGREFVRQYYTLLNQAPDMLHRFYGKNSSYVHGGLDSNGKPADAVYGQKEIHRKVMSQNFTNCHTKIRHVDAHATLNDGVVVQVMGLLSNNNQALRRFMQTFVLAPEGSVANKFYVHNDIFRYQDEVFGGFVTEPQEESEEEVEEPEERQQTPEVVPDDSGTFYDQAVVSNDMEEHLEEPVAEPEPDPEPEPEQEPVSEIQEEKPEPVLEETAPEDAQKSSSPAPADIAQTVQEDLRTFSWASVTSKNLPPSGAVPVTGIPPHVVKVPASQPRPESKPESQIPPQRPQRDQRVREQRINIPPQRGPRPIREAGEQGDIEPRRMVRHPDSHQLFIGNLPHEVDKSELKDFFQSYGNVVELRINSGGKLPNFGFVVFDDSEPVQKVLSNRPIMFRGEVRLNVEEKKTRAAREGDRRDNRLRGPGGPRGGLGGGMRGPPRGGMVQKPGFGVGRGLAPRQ
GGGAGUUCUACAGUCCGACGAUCAGUCCUGUGCUACACAUCGUAUGUACCGAAUCGGGAAAAAGGGAGGGAAAAAAAGGGAAAGUAUUAUGUUACGCCGUUCGGAUCUGCACUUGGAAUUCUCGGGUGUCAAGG: -0.114
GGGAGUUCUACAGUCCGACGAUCUGGCCCUGGUGGCAUGCGGGGAGGAAGAGGUGGCCUCAUGGAUCGUGGUGGUCCCGGUGGCAUGUUCAGAGGUGGCCGUGGUGGAGACAGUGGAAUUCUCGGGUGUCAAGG: -0.143
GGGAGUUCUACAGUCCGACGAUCGCAGGAAGUAAAAACAAAUGGAAAUGCUUCGGAUAGUAAAAGGGGUGGGGGUUGCUAAGGAAAGGGUGGGAUGGGAGUGGGUAAAGAGUUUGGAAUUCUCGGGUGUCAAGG: 0.603
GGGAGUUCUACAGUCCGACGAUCAAGUCCUGUGCUACACAUCGUAUGUACCGAAUCGGAAAAAGGAAAGGAAAAAAAGGAAAGUAUUAUGUUACGCCGUUCGGAUCUGCACUUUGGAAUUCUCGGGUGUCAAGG: -1.17
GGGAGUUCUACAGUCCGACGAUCAUAUGAGUAAAAUCUGUCCCUUUUUCCCCCUUUGAAUGAGGUCUUCCAUGUUUGAGGGAAAGUCUUGCACUAUUGCAUAUAUUUUGGGGAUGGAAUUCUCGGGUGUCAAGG: -0.157
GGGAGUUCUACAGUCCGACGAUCCACGGACAACACGCACCCACACAGACACAGAGGGAAGGGGUUGGGAUGGGGACAGGGUGCACAGCAGGGCGGGGUAGGACCCCAGCCCCUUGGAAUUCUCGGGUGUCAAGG: 1.93
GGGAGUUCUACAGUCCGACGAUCCAAGUCCUGUGCUACACAUCGUAUGUACCGAAUCGGCCCCGGGCCCCGGGCCCCGGAAAGUAUUAUGUUACGCCGUUCGGAUCUGCACUUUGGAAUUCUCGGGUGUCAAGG: -0.755
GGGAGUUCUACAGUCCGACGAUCCCUGUGCUACACAUCGUAUGUACCGAAUCGGGGUUUUUUUGGGGAGGGGAAAAAAAGGGGAAAGUAUUAUGUUACGCCGUUCGGAUCUGCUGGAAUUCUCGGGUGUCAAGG: 0.0436
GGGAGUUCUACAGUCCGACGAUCUUGUUUUUUUUUUGUUCUUUUUUUCCAUGUCACUAAAGGCCCUCGGGACCAAGGAUCACGUCAUGACUCCGGUGAGUUCACACGUGGUGGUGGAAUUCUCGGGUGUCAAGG: -0.245
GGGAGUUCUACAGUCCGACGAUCGUCCUGUGCUACACAUCGUAUGUACCGAAUCGGGGAAAGGGGUUUUUUUGGGGUGGGGAAAGUAUUAUGUUACGCCGUUCGGAUCUGCACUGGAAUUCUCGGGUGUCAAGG: 0.519

Study 2 — technique: RNA Bind-n-Seq; form: RNA; matrix: in vitro; concentration: 365 nM; relative to: no-protein control; direction: higher = stronger binding; endpoint: RBNS enrichment (R)
Target: RNA binding protein fox-1 homolog 2, RRM domain, GST-SBP tag (RBFOX2, Homo sapiens, UniProt O43251-10, residues 100-194)
Setting: natural RNA segment, single round, ends assumed
Residues (chain): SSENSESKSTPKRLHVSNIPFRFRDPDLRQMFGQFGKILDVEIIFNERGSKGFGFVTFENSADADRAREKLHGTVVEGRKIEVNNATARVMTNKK
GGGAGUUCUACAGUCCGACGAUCAAAAUCAAGUGUUAGGAAAUUUCAUGGUCUUACCUACAAUAACUUUUAUUUUGGAAUUGAACUAUUAUUAAAUUGUAUCUAAUCCUGGAUUACAGUUUAAUUAAUUAUUCUGGAAUUCUCGGGUGCCAA: 0.454
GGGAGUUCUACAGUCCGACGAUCGUAGUCCCCAGUUAUUAUGAAACCACCAAUAACCCACUGACCACAGUGAGAACCACUGAUUUUUUCCACUGACCUACUGAAUAUCUAGCAUCCUUAGAUUGGCUCAACUGUGGAAUUCUCGGGUGCCAA: 1.06
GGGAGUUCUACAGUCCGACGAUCGACCUCCAACUCUCACCCACCCCCUCUACCAUCACCUCUAACCAGGCAAGCCAGGGUGGGAGAGCAAUCAGGAGAGCCAGGCCUCAGCUUCCAAUGCCUGGAGGGCCUCCUGGAAUUCUCGGGUGCCAA: 0.558
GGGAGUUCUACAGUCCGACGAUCCCUUAAAAGGGUGAGAAGGGCGCGUAGAUAGUUACAGAGUCUCAGCUGCUGACGUUCUGAGCCAGGCAAGUGCACGGGGCUGUUGGAUGGCCAGUGGGGAGCUGGAAAAAUGGAAUUCUCGGGUGCCAA: 1.15
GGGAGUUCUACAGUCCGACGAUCGACAGAAUCAUGGGACUUUGAGAAGAGGGAGGACAGAGGCCUCUGUCGCACUAACGCUCUCGUGGUUGCUCGACUGUUGUAUCUGUGAUACAUUAUCCGACUAAGGACUCUGGAAUUCUCGGGUGCCAA: 0.289
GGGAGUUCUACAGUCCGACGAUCAUGUGCUGGGCCAAGGAGCUGCCGUGCUCUGCUAGCUUUGACCCGUGGGCAUGGAGAUUUACCCGCACUGUGAACUCUCUAAAGGUUAAACAAAGUGAGGUGAACCAAACUGGAAUUCUCGGGUGCCAA: 0.658
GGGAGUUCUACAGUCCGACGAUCUUUACGUCUUCAGCACCCUUGAUUAAAAUGGUGUCGUUUACUUAUGUGCACCAAUUGUCAAAACCACUGAGUGCUGUGCUGCCUAUGUGAGAAGAAAGUUACUGACUUGUUGGAAUUCUCGGGUGCCAA: 0.461
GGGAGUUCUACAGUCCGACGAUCCUGUAUCCACAAAAUCUCCACUGCUGUCGAGUGUCCUUUAGCUGUGGACCAAAGGCAACCCCUGCAGUGUCUGUGAAAUGAUUUGAAGACCGUUCAGGCCACGCAAUAUGUGGAAUUCUCGGGUGCCAA: 0.411
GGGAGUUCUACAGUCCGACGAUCCAGGGACCCGAGAUGGGGGGCGCAUUGUGGCAUUCCUCUUCUCCACAUCUGCUCGUUCUUGCCGAGGGUGCAGUGGUGGCGUGGAAGCCCUGUCACCCCACCCCAGGCCAUGGAAUUCUCGGGUGCCAA: 0.519

Study 3 — technique: aptamer microarray, sandwich; form: DNA with 2'F-ANA; matrix: in vitro; concentration: 200 nM; together with: Cy3 exosite-II aptamer, 400 nM; direction: higher = stronger binding; endpoint: mean fluorescence intensity; oligonucleotide: GGTTGGTGTGGTTGG
Target: Prothrombin, mature alpha-thrombin (F2, Homo sapiens, UniProt P00734)
Setting: whole 15-mer aptamer, many near background
2'F-ANA at 3 4 6 8 13 15: 444 a.u.
2'F-ANA at 7 10 12 14: 120 a.u.
2'F-ANA at 1 3 4 7 8 12 13 14: 107 a.u.
2'F-ANA at 3 6 8 9 10 12 15: 509 a.u.
2'F-ANA at 6 9 12 14: 211 a.u.
2'F-ANA at 1 5 6 7 13 14 15: 46.5 a.u.
2'F-ANA at 3 5 7 8 9 11 13: 110 a.u.
2'F-ANA at 1 3 5 7 10 11 12 13 14: 46 a.u.
2'F-ANA at 2 3 5 6 9 14: 49.8 a.u.
2'F-ANA at 2 3 4 5 6 8 9 13 14: 65.5 a.u.
2'F-ANA at 1 3 4 5 7 9 10 11 12 15: 59.1 a.u.
2'F-ANA at 2 4 8 10 12 15: 134 a.u.
2'F-ANA at 1 4 5 8 9 12 13 15: 64.9 a.u.
2'F-ANA at 3 5 6 7 9 11 12 14 15: 55.4 a.u.
2'F-ANA at 1 2 4 6 13 14 15: 61.2 a.u.
2'F-ANA at 1 2 4 6 12 14: 60.4 a.u.

Study 4 — technique: universal PBM; form: double-stranded DNA, one strand shown; matrix: in vitro; concentration: 600 nM; direction: higher = stronger binding; endpoint: E-score
Target: Sal-like protein 4, full length isoform A (SALL4, Homo sapiens, UniProt Q9UJQ4, residues 1-1053)
Chain of UniProt Q9UJQ4 (whole entry, looked up): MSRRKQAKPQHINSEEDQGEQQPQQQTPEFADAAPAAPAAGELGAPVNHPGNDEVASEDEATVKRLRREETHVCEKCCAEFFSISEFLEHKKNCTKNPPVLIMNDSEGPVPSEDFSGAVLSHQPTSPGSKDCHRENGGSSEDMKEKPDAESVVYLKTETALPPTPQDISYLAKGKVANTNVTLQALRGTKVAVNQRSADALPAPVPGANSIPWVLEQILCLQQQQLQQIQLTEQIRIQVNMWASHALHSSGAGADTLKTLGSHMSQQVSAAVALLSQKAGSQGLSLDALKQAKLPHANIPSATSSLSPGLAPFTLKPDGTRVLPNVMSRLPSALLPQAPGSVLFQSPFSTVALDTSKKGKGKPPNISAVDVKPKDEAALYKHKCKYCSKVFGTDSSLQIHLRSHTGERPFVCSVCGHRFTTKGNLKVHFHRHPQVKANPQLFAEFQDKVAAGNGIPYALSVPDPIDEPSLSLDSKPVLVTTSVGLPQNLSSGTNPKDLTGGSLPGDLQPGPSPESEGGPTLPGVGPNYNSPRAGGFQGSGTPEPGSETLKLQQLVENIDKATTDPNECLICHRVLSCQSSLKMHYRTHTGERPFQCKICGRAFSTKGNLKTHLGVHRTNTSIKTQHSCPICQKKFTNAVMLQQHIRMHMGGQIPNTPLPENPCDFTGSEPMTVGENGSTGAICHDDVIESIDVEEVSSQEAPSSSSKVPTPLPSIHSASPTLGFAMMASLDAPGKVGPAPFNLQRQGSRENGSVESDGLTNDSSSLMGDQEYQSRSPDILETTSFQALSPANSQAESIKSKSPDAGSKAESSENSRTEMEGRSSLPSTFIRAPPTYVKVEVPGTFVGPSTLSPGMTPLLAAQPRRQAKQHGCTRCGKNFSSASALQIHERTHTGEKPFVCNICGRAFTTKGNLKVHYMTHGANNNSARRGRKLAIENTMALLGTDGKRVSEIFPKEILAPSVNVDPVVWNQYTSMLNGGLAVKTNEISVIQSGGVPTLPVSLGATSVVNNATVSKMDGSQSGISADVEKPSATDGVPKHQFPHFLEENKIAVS
Setting: 8-mer, flanks averaged, mean of replicates
GTCGACGA: -0.211
AGGGTCCC: -0.268
TCATCTAA: 0.152
GGTGGACA: -0.128
CGGGCGTA: -0.262
ACTAAACC: 0.0375
GACGGACA: -0.156
AAGTGATG: -0.0224
GGCGTCCA: -0.235
CAGTGTTC: 0.0787
CAATGATG: 0.16
CTCCTTCA: 0.0649
AATAACAT: 0.391
GAGCTCAC: -0.263
CCCTGAGG: -0.318
CCGCGAGA: -0.229
GCTCTCAC: -0.27
GAGGCCCC: -0.415

For quick reference, copied from above (study 4):
GGTGGACA: -0.128
CGGGCGTA: -0.262
ACTAAACC: 0.0375
